Measured values of several laboratories.
Compare with care: the assays were run in different laboratories. “And” joins repeats or separate records; there may be more than shown. ± marks the error that the study gave.
Pteridine reductase 1: Pteridine reductase 1 (Leishmania major, UniProt Q01782)
TOP2A: DNA topoisomerase 2-alpha (TOP2A, Homo sapiens, UniProt P11388)
BEST2: Bestrophin-2a (BEST2, Homo sapiens, UniProt Q8NFU1)
GUK1: GUK1 (Homo sapiens, UniProt Q16774)
T1: G-quadruplex RNA (Caenorhabditis elegans); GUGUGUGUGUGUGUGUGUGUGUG
T2: G-quadruplex RNA, intermolecular parallel G4 (Homo sapiens); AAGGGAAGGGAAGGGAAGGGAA

SMILES = O=C1CCC(N2C(=O)C=C(Nc3cccc(-c4cn(CCc5ccc(C(F)(F)F)c(Cl)c5)nn4)c3)C2=O)C(=O)N1 (centres unmarked); target = Cereblon/Ikaros (Homo sapiens, UniProt Q13422+Q96SW2); test = protein degradation, degrader, HiBiT luminescence; test system = Jurkat; quantity = Dmax; result = 78%
SMILES = COC(=O)C1CCN(C(=O)Cc2ccc(NCc3cnc4nc(N)nc(N)c4n3)cc2)CC1; target = Pteridine reductase 1; conditions = hDHFR weight 10; scale = reference: LmPTR1, LmDHFR over hDHFR, 1.0 selective, 0.0 non-selective; quantity = partition index; result = 0.88
SMILES = O=c1nc(SCc2cc(F)cc(C(F)(F)F)c2)nc(SCc2nc3ccccc3[nH]2)[nH]1; target = TOP2A; test = decatenation; conditions = 7.8 µM, replicate 1; quantity = decatenated DNA; result = 100%
SMILES = Cc1cc(Nc2cc(CN3CCOCC3)c3nc(C)c(Cc4ccc(Cl)cc4F)n3n2)n[nH]1; target = PKN1 (Homo sapiens, UniProt Q16512); test = inhibitor; quantity = Hill slope; result = -1.06
SMILES = Nc1nc(N)c2nc(C(=O)NCc3cccc(C(F)(F)F)c3)cnc2n1; target = Pteridine reductase 1; conditions = hDHFR weight 10; scale = reference: LmPTR1, LmDHFR over hDHFR, 1.0 selective, 0.0 non-selective; quantity = partition index; result = 0.97
SMILES = C=CC(=O)N1CCC[C@@H](n2nc(-c3ccc(Oc4ccccc4)cc3)c3c(N)ncnc32)C1; target = MAP4K3 (Homo sapiens, UniProt Q8IVH8); conditions = 1 µM; quantity = remaining activity; result = 108%
SMILES = CN1CCN(c2cc(-c3ccncc3)c(-c3ccc4ccccc4c3)nn2)CC1; target = CCR4 (Homo sapiens, UniProt P51679); test = agonist, FLIPR; conditions = 12.5 µM; quantity = activation; result = 2.1%
SMILES = Cc1c(COc2ccc(CN3CCCCC3C(=O)O)cc2Br)cccc1-c1ccccc1 (centres unmarked); target = Cd274 (Mus musculus, UniProt Q9EP73); test = western blot; test system = mouse B16-F10 tumour, tumour; conditions = dose not given, unit not given; scale = reference: control; quantity = protein level; result = 1.21 and 0.699
SMILES = Nc1nc2c(ncn2[C@@H]2O[C@@H]3COP(=O)(O)O[C@H]3[C@H]2O)c(=S)[nH]1; target = anti-cGMP antibody; test = antibody binding, competitive cGMP EIA; conditions = concentration not given, acetylated samples; scale = reference: EC50 cGMP over EC50 cpd, higher = stronger binding; quantity = relative binding affinity; result = 0.0432
SMILES = CC1CNCCN1S(=O)(=O)c1cccc2cnccc12 (centres unmarked); target = Sulfonylurea receptor 1, Kir6.2 (Homo sapiens, UniProt Q09428+Q14654); test = inside-out patch clamp; test system = HEK293; conditions = 100 µM, 10 min, no MgADP; quantity = decrease in channel activity; result = 22 ± 7%
SMILES = CCCC[C@H](NC(=O)[C@H](C)c1c(C)[nH]c2ccc(O)cc12)c1ncc(-c2cc3ccccc3nc2OC)[nH]1; target = ADORA1 (Homo sapiens, UniProt P30542); quantity = Hill coefficient; result = 0.7
SMILES = Nc1ncnc2c1ncn2[C@@H]1O[C@H](COP(=O)(O)CP(=O)(O)OP(=O)(O)O)[C@@H](O)[C@H]1O; target = P2X purinoceptor 1 (P2RX1, Homo sapiens, UniProt P51575, R139A); test = calcium influx; conditions = 3.16 µM; scale = reference: ionomycin response; quantity = calcium influx; result = 97% and 96.3% and 98.8%
SMILES = O=C(O)C1=CCNCC1; target = BEST2; test = whole-cell patch clamp; test system = HEK293 transiently expressing channel; conditions = concentration not given, membrane potential -20 mV; quantity = current density; result = -35 pA/pF and -53.5 pA/pF and -49.4 pA/pF and -87 pA/pF and -38.2 pA/pF
SMILES = C=CC1=C(C)C2=Cc3c(C=C)c(C)c4[n]3[Fe]([Cl])[n]3c(c(C)c(CCC(=O)O)c3=CC3=NC(=C4)C(C)=C3CCC(=O)O)=CC1=N2; target = T1, G-quadruplex RNA (Caenorhabditis elegans); test = UV-vis titration; quantity = binding; result = binds
SMILES = CNC[C@H](O)c1cccc(O)c1; target = ADRA1B (Homo sapiens, UniProt P35368); test = calcium mobilization, agonist; test system = COS-7, transiently expressing receptor; scale = reference: 3 µM ionomycin; quantity = Emax; result = ~25%
SMILES = Nc1ncnc2c1ncn2[C@@H]1O[C@H](CO[P@](=O)(O)O[P@](=O)(O)O[P@@](=O)(O)S)[C@@H](O)[C@H]1O; target = GUK1; test = binding, isothermal titration calorimetry; conditions = molar ratio 2.388, fitted curve; quantity = ΔH; result = -0.372 kcal/mol
SMILES = Cc1c(COc2ccc(CN3CCCCC3C(=O)NCCCCCNC(=O)CN(C)CCCC34CCC(c5ccccc53)c3ccccc34)cc2Br)cccc1-c1ccccc1 (centres unmarked); target = CD274 (Homo sapiens, UniProt Q9NZQ7); test = degrader, western blot; test system = HL-60; conditions = 1 µM; quantity = degradation; result = 18.5 ± 1.5%
SMILES = CCOC(=O)C1=C(CN2CCc3ccccc32)NC(=O)NC1c1ccccc1OC(F)F (centres unmarked); target = AASS, SDH domain (Homo sapiens, UniProt Q9UDR5); test = binding, surface plasmon resonance; conditions = 0.5556 µM; quantity = SPR response; result = 0.545 RU
SMILES = NS(=O)(=O)C(F)(F)F; target = CA4 (Homo sapiens, UniProt P22748); test = ITC; conditions = concentration not given, 25 °C; quantity = intrinsic binding ΔG; result = -10.2 kcal/mol
SMILES = CC[S+]([O-])c1nc(-c2ccccc2)cc(C(F)(F)F)n1 (centres unmarked); target = KPNB1 (Homo sapiens, UniProt Q14974); test = thermal shift; conditions = 30 µM, 2 h; scale = reference: untreated; quantity = delta Tm; result = 2.2 °C
SMILES = CN(C)c1ccc(Nc2c3ccc(NC(=O)CCN4CCCC4)cc3nc3cc(NC(=O)CCN4CCCC4)ccc23)cc1; target = T2, G-quadruplex RNA, intermolecular parallel G4 (Homo sapiens); test = 1H NMR peak broadening; quantity = binding; result = binds
SMILES = O=c1nc(SCc2cc(F)cc(C(F)(F)F)c2)nc(SCc2csc3ccc(Cl)cc23)[nH]1; target = TOP2B (Homo sapiens, UniProt Q02880); test = decatenation; conditions = 15.6 µM, replicate 2; quantity = decatenated DNA; result = 5.1%
SMILES = C=CC(=O)N1CCC(COCC(=O)N2CCN(c3nc(-c4cnc(N)nc4C(F)F)nc(N4CCOC[C@@H]4C)n3)CC2)CC1; target = PI4KB (Homo sapiens, UniProt Q9UBF8); test = KINOMEscan; conditions = 1 µM; quantity = remaining binding; result = 100%
SMILES = COc1cc(F)ccc1-c1ncnc(Nc2cccc(C[S@](C)(=N)=O)c2)n1; target = PIM1 (Homo sapiens, UniProt P11309); test = kinase activity; conditions = 10 µM, with: 10 µM ATP; quantity = remaining activity; result = 103%
SMILES = CC(C)=CCC/C(C)=C/CC/C(C)=C/COP(=O)(O)OP(=O)(O)O; target = Protein farnesyltransferase (Rattus norvegicus, UniProt Q02293+Q04631); test = substrate, fluorescence kinetics; conditions = pH 7.5, 25 °C, with: dansyl-GCVLS peptide; quantity = Km; result = 0.11 ± 0.03 µM
SMILES = Cc1cc(=O)oc2cc(O[C@@H]3O[C@H](CO)[C@@H](O)[C@H](O)[C@H]3O)ccc12; target = GBA1 (Homo sapiens, UniProt P04062, R534H); test = substrate, blue fluorogenic; conditions = room temperature; quantity = Km; result = 862 µM
SMILES = Nc1nc2c(ncn2[C@@H]2O[C@H](COP(=O)(O)O)[C@@H](O)[C@H]2O)c(=O)[nH]1; target = GUK1; test = substrate, NADH-coupled; conditions = NaCl 50 mM, enzyme 2 nM; quantity = Vmax; result = 0.102 µM/s
SMILES = O=c1nc(SCc2cc(F)cc(C(F)(F)F)c2)nc(SCc2ccc3ncsc3c2)[nH]1; target = TOP2A; test = decatenation; conditions = 15.6 µM, replicate 1; quantity = decatenated DNA; result = 100%
SMILES = C[C@@H](O)[C@H](NC(=O)[C@H](Cc1ccc(O)cc1)NC(=O)[C@H](Cc1ccc(O)cc1)NC(=O)[C@H](CO)NC(=O)[C@H](CCCNC(=N)N)NC(=O)[C@H](Cc1c[nH]cn1)NC(=O)[C@@H](N)Cc1c[nH]c2ccccc12)C(=O)N[C@@H](Cc1c[nH]c2ccccc12)C(=O)N[C@@H](CC(N)=O)C(=O)NCCCC[C@H](NC(=O)[C@H](CC(N)=O)NC(=O)[C@H](Cc1c[nH]c2ccccc12)NC(=O)[C@@H](NC(=O)[C@H](Cc1ccc(O)cc1)NC(=O)[C@H](Cc1ccc(O)cc1)NC(=O)[C@H](CO)NC(=O)[C@H](CCCNC(=N)N)NC(=O)[C@H](Cc1c[nH]cn1)NC(=O)[C@@H](N)Cc1c[nH]c2ccccc12)[C@@H](C)O)C(=O)NCCCC[C@H](NC(=O)[C@H](CCCCNC(=O)[C@H](CC(N)=O)NC(=O)[C@H](Cc1c[nH]c2ccccc12)NC(=O)[C@@H](NC(=O)[C@H](Cc1ccc(O)cc1)NC(=O)[C@H](Cc1ccc(O)cc1)NC(=O)[C@H](CO)NC(=O)[C@H](CCCNC(=N)N)NC(=O)[C@H](Cc1c[nH]cn1)NC(=O)[C@@H](N)Cc1c[nH]c2ccccc12)[C@@H](C)O)NC(=O)[C@H](CC(N)=O)NC(=O)[C@H](Cc1c[nH]c2ccccc12)NC(=O)[C@@H](NC(=O)[C@H](Cc1ccc(O)cc1)NC(=O)[C@H](Cc1ccc(O)cc1)NC(=O)[C@H](CO)NC(=O)[C@H](CCCNC(=N)N)NC(=O)[C@H](Cc1c[nH]cn1)NC(=O)[C@@H](N)Cc1c[nH]c2ccccc12)[C@@H](C)O)C(=O)N[C@@H](CCCCN)C(=O)N[C@@H](CCCCN)C(=O)N[C@@H](CCCCN)C(N)=O; target = Programmed cell death 1 ligand 1, with PD-1 (CD274, Homo sapiens, UniProt Q9NZQ7); test = PD-1 binding, inhibitor, competitive ELISA; conditions = 2.5 µM; scale = reference: PBS over 2% BSA; quantity = fold reduction of blocking; result = 1 fold
SMILES = Cc1nc(CSc2nc(SCc3ccc(C(F)(F)F)cc3)nc(=O)[nH]2)cs1; target = TOP2A; test = decatenation; conditions = 125 µM; quantity = mean decatenated DNA; result = 26.7%
SMILES = COc1ncc(CNc2c(CO)cnc3c(C4CC4)cc(C#N)cc23)cc1Cl; target = PDE2A (Homo sapiens, UniProt O00408); test = enzyme activity, inhibitor; conditions = concentration not given; quantity = activity class; result = inactive
SMILES = O=c1nc(SCc2cc(F)cc(C(F)(F)F)c2)nc(SCc2cccc(C(F)(F)F)c2)[nH]1; target = TOP2A; test = decatenation; conditions = 125 µM, replicate 1; quantity = decatenated DNA; result = 0%
SMILES = Cc1ccc(N(C)C(=O)/C=C/c2ccco2)cc1; target = Chrna7 (Rattus norvegicus, UniProt Q05941); test = potentiator; conditions = concentration not given, holding potential -80 mV, with: acetylcholine 30 µM; quantity = potentiation; result = inactive
SMILES = O=c1nc(SCc2cc(F)cc(C(F)(F)F)c2)nc(SCc2ccc3nc(Cl)ccc3c2)[nH]1; target = TOP2A; test = decatenation; conditions = 7.8 µM, replicate 2; quantity = decatenated DNA; result = 91.8%
SMILES = NCCCC(=O)O; target = SLC6A6 (Homo sapiens, UniProt P31641, G62A); test = binding, microscale thermophoresis; conditions = 61 nM, room temperature, with: 50 nM labelled protein; scale = higher = more binding; quantity = normalised MST signal; result = -0.0463
SMILES = O=C(O)c1ccc([N+](=O)[O-])cc1; target = BEST2; test = whole-cell patch clamp; test system = HEK293 transiently expressing channel; conditions = concentration not given, membrane potential 100 mV; quantity = current density; result = 91.5 pA/pF and 330 pA/pF and 406 pA/pF and 290 pA/pF and 361 pA/pF
SMILES = CCCCCCCC(=O)c1cc(OC)c(OC)c(OC)c1CC(=O)OCC; target = Bile acid receptor (NR1H4, Homo sapiens, UniProt Q96RI1); test = reporter gene, Gal4 hybrid reporter; conditions = 10 µM; scale = reference: vehicle; quantity = activation; result = 0.62 fold
SMILES = Cc1ccc(C(=O)N2c3ccc(F)cc3[C@@H](Nc3ccccc3)C[C@H]2C)cn1; target = Ecdysone receptor (Aedes albopictus, UniProt Q9U3Y4); test = ligand binding, inhibitor; test system = intact cells; conditions = with: [3H]ponasterone A; scale = direction not given; quantity = pIC50 Z-score; result = -0.68

Repeated from above:
SMILES = CC1CNCCN1S(=O)(=O)c1cccc2cnccc12 (centres unmarked); target = Sulfonylurea receptor 1, Kir6.2 (Homo sapiens, UniProt Q09428+Q14654); test = inside-out patch clamp; test system = HEK293; conditions = 100 µM, 10 min, no MgADP; quantity = decrease in channel activity; result = 22 ± 7%
SMILES = CCCC[C@H](NC(=O)[C@H](C)c1c(C)[nH]c2ccc(O)cc12)c1ncc(-c2cc3ccccc3nc2OC)[nH]1; target = ADORA1 (Homo sapiens, UniProt P30542); quantity = Hill coefficient; result = 0.7
SMILES = Nc1ncnc2c1ncn2[C@@H]1O[C@H](COP(=O)(O)CP(=O)(O)OP(=O)(O)O)[C@@H](O)[C@H]1O; target = P2X purinoceptor 1 (P2RX1, Homo sapiens, UniProt P51575, R139A); test = calcium influx; conditions = 3.16 µM; scale = reference: ionomycin response; quantity = calcium influx; result = 97% and 96.3% and 98.8%
SMILES = O=C(O)C1=CCNCC1; target = BEST2; test = whole-cell patch clamp; test system = HEK293 transiently expressing channel; conditions = concentration not given, membrane potential -20 mV; quantity = current density; result = -35 pA/pF and -53.5 pA/pF and -49.4 pA/pF and -87 pA/pF and -38.2 pA/pF
